Results of several laboratories.
Lines come from different studies, so protocols differ. ± gives the spread as reported. Values after ≈ are worked out from the molar mass of the structure shown.
Organism: Mycobacterium tuberculosis

O=c1c2cc(Cl)ccc2[nH]c(=S)n1C(CCc1ccccc1)c1cccnc1 (centres unmarked)
MIC90 (PptT conditional knockdown): > 100 µM

Nc1c(C(=O)Nc2cccnc2)sc2nc(-c3ccccc3)cc(C(F)(F)F)c12
IC50 (growth inhibition; H37Rv LepB under-expressing): > 100 µM

CC(C)c1ccc(Cn2c(=S)[nH]c3ccc(Cl)cc3c2=O)cn1
MIC90 (PptT conditional knockdown): 8.35 µM (≈ 2.89 µg/mL)

COC1CN(C(=O)c2sc3ncccc3c2N)C1
IC50 (growth inhibition; H37Rv LepB under-expressing): > 100 µM

NC(=O)c1cc(-c2ccoc2)cc(F)c1OCCc1cccc(F)c1
selectivity index (H37Rv-LP; reference: HepG2 CC50 over Mtb IC90): 2

Cc1nc2ccc(CN(C)c3ccc(C(=O)N[C@@H](CCC(=O)O)C(=O)O)s3)cc2c(=O)[nH]1
MIC90 (bacterial growth, inhibitor; H37Rv pptT conditional knockdown; PptT depleted, ATc withheld): > 100 µM

CNC(=O)c1sc(C)nc1OCCc1cc(F)cc(F)c1
selectivity index (H37Rv-LP; reference: HepG2 CC50 over Mtb IC90): 4

COc1ccc(NNC(=O)c2c(N)cccc2F)cc1
MIC99 (H37Rv; 336 h): 1.56 to 2.84 µM (≈ 0.429 to 0.782 µg/mL)

COCCNC(=O)c1cc(-c2ccoc2)ccc1OCCc1cccc(F)c1
IC90 (growth; H37Rv-LP; 120 h): 8.6 ± 0.8 µM

O=c1c2cc(Cl)ccc2[nH]c(=S)n1Cc1cccnc1
MIC90 (PptT conditional knockdown): 0.3 µM (≈ 0.0911 µg/mL)

Cc1ccc(OC2CC(c3ccccc3)C2)c(C(N)=O)c1 (centres unmarked)
IC90 (growth; H37Rv-LP; 120 h): 66 ± 12 µM

COc1ccc(-c2cc(C(F)(F)F)c3c(N)c(C(=O)NC45CC(C4)C5)sc3n2)cc1
selectivity index (H37Rv wild type; reference: HepG2 IC50 over M. tuberculosis IC90): < 1

O=c1c2cc(Cl)ccc2[nH]c(=S)n1Cc1ccc(-c2cscn2)nc1
MIC90 (PptT conditional knockdown): 1.47 µM (≈ 0.569 µg/mL)

COc1ccc(-c2cc(C(F)(F)F)c3c(N)c(C(=O)NC45CC6CC(CC(O)(C6)C4)C5)sc3n2)cc1
IC50 (growth inhibition; H37Rv LepB under-expressing): > 100 µM

N#Cc1ccc(Cn2c(=S)[nH]c3ccc(Cl)cc3c2=O)cn1
MIC90 (PptT conditional knockdown): 1.87 µM (≈ 0.615 µg/mL)

CNC(=O)c1cc(C)ccc1OCCc1cc(F)cc(F)c1
selectivity index (H37Rv-LP; reference: HepG2 CC50 over Mtb IC90): 86

Nc1c(C(=O)N2CCOCC2)sc2nc(Cl)ccc12
IC50 (growth inhibition; H37Rv LepB under-expressing): > 100 µM

CC(=O)NCCC(c1cccnc1)n1c(=S)[nH]c2ccc(Cl)cc2c1=O (centres unmarked)
MIC90 (PptT conditional knockdown): > 100 µM

NC(=O)c1cc(-c2ccsc2)cc(F)c1OCCc1cccc(F)c1
selectivity index (H37Rv-LP; reference: HepG2 CC50 over Mtb IC90): 2

Cc1cccc(NC(=O)c2sc3nc(-c4ccccc4)cc(C(F)(F)F)c3c2N)c1C
IC50 (growth inhibition; H37Rv LepB under-expressing): > 100 µM

O=c1[nH]c2ccc(Cl)cc2c(=O)n1Cc1cccnc1
MIC90 (PptT conditional knockdown): 16.3 µM (≈ 4.69 µg/mL)

COc1ccc(-c2cc(C(F)(F)F)c3c(N)c(C(=O)NCCc4ccccc4)sc3n2)cc1
IC50 (growth inhibition; H37Rv LepB under-expressing): > 100 µM

CCCCCCC#Cc1cncc(-c2nnc(SCc3cc([N+](=O)[O-])cc([N+](=O)[O-])c3)n2C2CC2)c1
IC50 (bacterial growth; Erdman wild type): 1.2 µM
